Results of several laboratories.
± gives the spread as reported.

Cn1cnc2c1c(=O)[nH]c(=O)n2C
median concentration (human, fasted baseline, cerebrospinal fluid): 333 nM

COc1cc2ncnc(Nc3ccc(F)c(Cl)c3)c2cc1NC(=O)/C=C/CN1CCCCC1
IC50 (poziotinib M2 formation, inhibitor; human liver microsomes; 50 min, pH 7.4, together with: poziotinib 100 µM): 0.34 µM

COc1cc2c(cc1OC)CN(CCc1ccc(NC(=O)c3cc(OC)c(OC)cc3NC(=O)c3cnc4ccccc4c3)cc1)CC2
brain concentration (Wistar Unilever rat; intravenous, 5 mg/kg, 3 h): 1580 ng/mL

O=C(O)c1cn(C2CC2)c2cc(N3CCNCC3)c(F)cc2c1=O
EC20 (cytochrome c release, ELISA; BALB/cByJ female mouse liver mitochondria; 30 min; reference: alamethicin maximal release): > 400 µM

O=C(O)[C@H](c1ccccc1Cl)N1CCc2sccc2C1
deviation from nominal (HPLC-MS/MS; feline EDTA plasma; 72 h, -20 °C, storage stability): -1%

O=c1[nH]c(=O)c(Cc2cccc(C(F)(F)F)c2)c([C@H]2CC[C@H](c3ccccc3)CC2)[nH]1
AUC(0-tau) (human, plasma; oral, 450 mg once daily, day 14, geometric mean): 5700 ng·h/mL

COc1cccc(-c2ccc(NC(=O)C3=C(C(=O)O)CCC3)c(F)c2)c1
AUC(0-24h) (human, male, plasma; oral, 50 mg once daily, day 13, geometric mean, not pre-dosed): 167000 ng·h/mL

CN[C@H](CC(C)C)C(=O)N[C@H]1C(=O)N[C@@H](CC(N)=O)C(=O)N[C@H]2C(=O)N[C@H]3C(=O)N[C@H](C(=O)N[C@H](C(=O)O)c4cc(O)cc(O)c4-c4cc3ccc4O)[C@H](O)c3ccc(c(Cl)c3)Oc3cc2cc(c3O[C@@H]2O[C@H](CO)[C@@H](O)[C@H](O)[C@H]2O[C@H]2C[C@](C)(N)[C@H](O)[C@H](C)O2)Oc2ccc(cc2Cl)[C@H]1O
bioavailability fraction (two-compartment model; Sprague-Dawley rat, plasma; intraperitoneal, 150 mg/kg/day): 0.459

CC(C)[C@H](NC(=O)[C@@H]1CCCN1C(=O)[C@H](CCCNC(=N)N)NC(=O)[C@H](CS)NC(=O)[C@H](Cc1c[nH]c2ccccc12)NC(=O)[C@H](CCCNC(=N)N)NC(=O)[C@@H](Cc1ccccc1)NC(=O)[C@H](Cc1c[nH]cn1)NC(=O)[C@H](CCC(=O)O)NC(=O)[C@H](CS)NC(=O)[C@H](CS)NC(=O)[C@H](CCCCN)NC(=O)[C@@H]1CC(=O)N[C@@H](CCCNC(=N)N)C(=O)N[C@@H]([C@@H](C)O)C(=O)N[C@@H](CC(=O)O)C(=O)N[C@H](Cc2ccc(O)cc2)C(=O)N1)C(N)=O [technetium-99m labelled]
uptake ratio (C57 mouse, female, B16/F1 melanoma; intravenous, 2 h, together with: NDP-MSH 10 µg co-injected; reference: tumour over liver): 1.36

CNCc1ccc(-c2[nH]c3cc(F)cc4c3c2CCNC4=O)cc1
AUC(0-24 h) (human cancer patients, plasma; intravenous, 18 mg/m2, day 1, together with: temozolomide 200): 1920 ng·h/mL

O=C(Nc1ccc(OC(F)(F)Cl)cc1)c1cnc(N2CC[C@@H](O)C2)c(-c2ccn[nH]2)c1
tolerability (healthy volunteers; 40 mg twice daily, together with: probe substrates): not toxic

CS(=O)(=O)n1cc2c(n1)CN([C@H]1CO[C@H](c3cc(F)ccc3F)[C@@H](N)C1)C2
AUC(0-24h) (healthy male human, plasma; oral, 25 mg, fasted, geometric mean): 8.2 µM·h

CC(C)(S)[C@@H](N)C(=O)O
EC20 (cytochrome c release, ELISA; BALB/cByJ female mouse liver mitochondria; 30 min; reference: alamethicin maximal release): > 400 µM

ciclosporin
drug release (dialysis; phosphate buffer; 52 h, pH 7.4, room temperature): < 4%

Nc1ccn([C@@H]2O[C@H](CO)[C@@H](O)C2(F)F)c(=O)n1
clearance (male BALB/c mouse, plasma; intravenous, 38 µmol/kg): 0.233 mL/min

CCOc1ccc2c(c1)C(C)=CC(C)(C)N2
residue concentration (LC-MS/MS; cattle, Holstein, subcutaneous fat; oral, 50 mg/kg complete feed, 42 days, highest value): 95.9 ng/g

CNCc1ccc(-c2[nH]c3cc(F)cc4c3c2CCNC4=O)cc1
AUC(0-t) (human patients, plasma; oral, 240 mg twice daily, day 15, steady state, arithmetic mean): 10700 ng·h/mL

[2H]C([2H])([2H])Oc1cc2c(cc1OC([2H])([2H])[2H])C1CC(=O)C(CC(C)C)CN1CC2 (stereo not drawn)
dose-normalized AUC(0-inf) (refers to: deuterated β-HTBZ; healthy human volunteers, plasma; oral, 18 mg single dose, standard meal): 5.47 ng·h/mL

CC(C)[C@@H](C)[C@@]1(C)CC[C@]2(C)[C@H]3CC[C@@H]4[C@@]5(COC[C@@]4(C)[C@@H](OC[C@](C)(N)C(C)(C)C)[C@H](n4ncnc4-c4ccncc4)C5)C3=CC[C@@]2(C)[C@@H]1C(=O)O
concentration at 24 h (human, both sexes, plasma; oral, 1250 mg day 1, then 750 mg days 2 and 3, 24 h, day 3, geometric mean): 385 ng/mL

CCc1oc2cc(Br)c(O)c(Br)c2c1C(=O)c1ccc(OC)cc1
microsomal CLint (metabolic stability; Sprague-Dawley rat, liver microsomes; 1 µM, pH 7.4): 269 µL/min/mg

CCOc1c([C@H](C)n2nc(C)c3c(N)ncnc32)cc(Cl)c(F)c1[C@@H]1CNC(=O)C1
Vz/F geometric mean (healthy fasted humans, plasma; oral, 10 mg): 52.9 L

CCN(CC)CCNC(=O)c1c(C)[nH]c(/C=C2\C(=O)Nc3ccc(F)cc32)c1C
median trough plasma concentration (human, plasma; oral, 20 mg/m2, day 21): 37.4 ng/mL

CCN(CC)CC(=O)Nc1c(C)cccc1C
EC20 (cytochrome c release, ELISA; BALB/cByJ female mouse liver mitochondria; 30 min; reference: alamethicin maximal release): > 800 µM

Cn1c(-c2ccc(C(N)=O)cc2F)nnc1C(C)(C)Oc1c(F)cc(Cl)cc1F
median half-life (young non-Japanese humans, plasma; oral, 2 mg once daily, last day of 14 days): 87.6 h

CCCC[C@H](NC(C)=O)C(=O)N[C@H]1CCC(=O)NC[C@@H](C(=O)N[C@@H](Cc2c[nH]c3ccccc23)C(N)=O)NC(=O)[C@H](CCCNC(=N)N)NC(=O)[C@@H](Cc2ccccc2)NC(=O)[C@H](Cc2c[nH]cn2)NC1=O
Cmax (beagle dog, female, plasma; subcutaneous, 8.0 mg/kg daily, day 28): 389 ng/mL

Nc1nc(NC2CC2)c2ncn([C@H]3C=C[C@@H](CO)C3)c2n1
CL/F (HIV-infected children and adolescents, Tanner stage 1-2, plasma; oral, 8 mg/kg): 22.1 mL/min/kg

CN(C)CCCN1c2ccccc2CCc2ccccc21
EC20 (cytochrome c release, ELISA; BALB/cByJ female mouse liver mitochondria; 30 min; reference: alamethicin maximal release): > 400 µM

CCCC[C@@H]1NC(=O)[C@@H](NC(=O)[C@H](CCC(=O)O)NC(=O)CNC(=O)CN2CCN(CC(=O)O)CCN(CC(=O)O)CCN(CC(=O)O)CC2)CCCCNC(=O)C[C@@H](C(N)=O)NC(=O)[C@H](C(C)C)NC(=O)[C@@H]2CCCN2C(=O)[C@H](CCCNC(=N)N)NC(=O)CNC(=O)[C@H](Cc2c[nH]c3ccccc23)NC(=O)[C@H](CCCNC(=N)N)NC(=O)[C@@H](Cc2ccccc2)NC(=O)[C@H](Cc2c[nH]cn2)NC(=O)[C@H](CCC(=O)O)NC1=O [indium-111 labelled]
urinary excretion (C57 mice, B16F10 lung metastasis, urine; intravenous, 0.037 MBq, 24 h): 95.61 ± 0.59%

O=C(/C=C/c1ccc(O)c(O)c1)c1ccc(O)cc1O
EC20 (mitochondrial swelling; BALB/cByJ female mouse liver mitochondria; 30 min, together with: succinate + rotenone; reference: CaCl2 maximal swelling): > 200 µM

Cc1ccc(NC(=O)c2ccc(CN3CCN(C)CC3)cc2)cc1Nc1nccc(-c2cncc(-c3oncc3C)c2)n1
AUC(0-tau) (Parkinson's disease patients, plasma; oral, 50.0 mg once daily, day 7, 7-day dosing, mean): 32100 ng·h/mL

COc1ccc2nc([S@@+]([O-])Cc3ncc(C)c(OC)c3C)[nH]c2c1
adverse events (human healthy; 40 mg, nervous system disorders): 0%

C[C@@]12C[C@@]3(O)O[C@@H](O1)[C@]1(COC(=O)c4ccccc4)[C@H]3C[C@@]12O[C@@H]1O[C@H](CO)[C@@H](O)[C@H](O)[C@H]1O
accuracy (rat plasma QC samples; 45.0 ng/mL, 45 days, -80 °C, long-term stability, low QC): 92.6 % nominal

C=C1/C(=C\C=C2/CCC[C@]3(C)[C@@H]([C@H](C)CCCC(C)(C)O)CC[C@@H]23)C[C@@H](O)C[C@@H]1O
body weight (rat; intraperitoneal, 2.56 nmol/kg/day for four days): 288 ± 19.4 g

CO[C@H]1C[C@@H]2CC[C@@H](C)[C@@](O)(O2)C(=O)C(=O)N2CCCC[C@H]2C(=O)O[C@H]([C@H](C)C[C@@H]2CC[C@@H](O)[C@H](OC)C2)CC(=O)[C@H](C)/C=C(\C)[C@@H](O)[C@@H](OC)C(=O)[C@H](C)C[C@H](C)/C=C/C=C/C=C/1C
AUC (human, whole blood; oral, 20 mg, mean): 1080 ng·h/mL

C[C@@H]1C[C@H]2[C@@H]3CCC4=CC(=O)C=C[C@]4(C)[C@@]3(F)[C@@H](O)C[C@]2(C)[C@@]1(O)C(=O)CO
EC20 (cytochrome c release, ELISA; BALB/cByJ female mouse liver mitochondria; 30 min; reference: alamethicin maximal release): > 200 µM

CC(C)(C)NC(=O)[C@@H]1C[C@@H]2CCCC[C@@H]2CN1C[C@@H](O)[C@H](Cc1ccccc1)NC(=O)[C@H](CC(N)=O)NC(=O)c1ccc2ccccc2n1
log intrinsic permeability (in situ brain perfusion; rat; no efflux inhibition): -5.22

Repeated from above:
CCOc1ccc2c(c1)C(C)=CC(C)(C)N2
residue concentration (LC-MS/MS; cattle, Holstein, subcutaneous fat; oral, 50 mg/kg complete feed, 42 days, highest value): 95.9 ng/g

Cn1c(-c2ccc(C(N)=O)cc2F)nnc1C(C)(C)Oc1c(F)cc(Cl)cc1F
median half-life (young non-Japanese humans, plasma; oral, 2 mg once daily, last day of 14 days): 87.6 h

CS(=O)(=O)n1cc2c(n1)CN([C@H]1CO[C@H](c3cc(F)ccc3F)[C@@H](N)C1)C2
AUC(0-24h) (healthy male human, plasma; oral, 25 mg, fasted, geometric mean): 8.2 µM·h
